Measured values of several laboratories.
Each line is one published result; not all experiments were run side by side. Several values in a cell are separate wells, animals, samples, runs or records. Numbers after ± are the reported error.

Structure (SMILES) | test | system | setting | tissue uptake
CC(C)[C@H](NC(=O)[C@@H]1CCCN1C(=O)[C@H](CCCNC(=N)N)NC(=O)[C@H](CS)NC(=O)[C@H](Cc1c[nH]c2ccccc12)NC(=O)[C@H](CCCNC(=N)N)NC(=O)[C@@H](Cc1ccccc1)NC(=O)[C@H](Cc1c[nH]cn1)NC(=O)[C@H](CCC(=O)O)NC(=O)[C@H](CS)NC(=O)[C@H](CS)NC(=O)CNC(=O)[C@@H]1CC(=O)N[C@@H](CCCNC(=N)N)C(=O)NCC(=O)N[C@@H](CC(=O)O)C(=O)N[C@H](Cc2ccc(O)cc2)C(=O)N1)C(N)=O [technetium-99m labelled] | – | C57 mice B16/F1 melanoma female, bone | iv, 2 h, with: NDP-MSH 10 µg co-injected | 1.18 ± 1.07 %ID/g
CN1C(=O)[C@@H](Cc2ccc(O)c(I)c2)NC(=O)CNC(=O)[C@H](Cc2ccc3ccccc3c2)NC(=O)[C@H](CCCNC(=N)N)NC(=O)[C@H]1CCCNC(=O)c1ccc(CNC(=O)CN2CCN(CC(=O)O)CCN(CC(=O)O)CCN(CC(=O)O)CC2)cc1 [lutetium-177 labelled] | refers to: 177Lu radioactivity | female CB-17 SCID mice, Daudi xenograft, brain | intravenous, 0.16 nmol per mouse, 6 h | 0.02 ± 0.005 %ID/g
CCCC[C@@H]1NC(=O)[C@@H](NC(=O)[C@H](CCC(=O)O)NC(=O)CNC(=O)CN2CCN(CC(=O)O)CCN(CC(=O)O)CCN(CC(=O)O)CC2)CCCCNC(=O)C[C@@H](C(N)=O)NC(=O)[C@H](C(C)C)NC(=O)[C@@H]2CCCN2C(=O)[C@H](CCCNC(=N)N)NC(=O)CNC(=O)[C@H](Cc2c[nH]c3ccccc23)NC(=O)[C@H](CCCNC(=N)N)NC(=O)[C@@H](Cc2ccccc2)NC(=O)[C@H](Cc2c[nH]cn2)NC(=O)[C@H](CCC(=O)O)NC1=O [gallium-67 labelled] | – | C57 mice, B16/F1 flank melanoma, kidneys | intravenous, 2 h, with: blocking peptide 10 µg | 22.8 ± 4.32 %ID/g
CCCC[C@H](NC(=O)CNC(=O)CNC(=O)CN1CCN(CC(=O)O)CCN(CC(=O)O)CCN(CC(=O)O)CC1)C(=O)N[C@H]1CC(=O)NCCCC[C@@H](C(N)=O)NC(=O)[C@H](Cc2c[nH]c3ccccc23)NC(=O)[C@H](CCCNC(=N)N)NC(=O)[C@@H](Cc2ccccc2)NC(=O)[C@H](Cc2c[nH]cn2)NC1=O [gallium-67 labelled] | – | female C57 mice, B16/F1 melanoma, lung | intravenous, 0.037 MBq, 0.5 h | 3.23 ± 0.07 %ID/g
O=C([O-])c1cccc(CN(CCN(Cc2cn(Cc3ccccc3)nn2)Cc2cccc(C(=O)[O-])n2)Cc2cn(Cc3ccccc3)nn2)n1.[64Cu+2] | – | healthy athymic nude mice, large intestine | intravenous, 1 h | 2.11 %ID/g
CCCC[C@H](NC(=O)CN1CCC(NC(=O)CN2CCN(CC(=O)O)CCN(CC(=O)O)CCN(CC(=O)O)CC2)CC1)C(=O)N[C@H]1CC(=O)NCCCC[C@@H](C(N)=O)NC(=O)[C@H](Cc2c[nH]c3ccccc23)NC(=O)[C@H](CCCNC(=N)N)NC(=O)[C@@H](Cc2ccccc2)NC(=O)[C@H](Cc2c[nH]cn2)NC1=O [gallium-68 labelled] | – | C57BL/6J mice male B16-F10 tumour, brain | 1 h post injection, unblocked | 0.1 %ID/g
CCCC[C@H](NC(=O)CNC(=O)CNC(=O)CN1CCN(CC(=O)O)CCN(CC(=O)O)CC1)C(=O)N[C@H]1CC(=O)NCCCC[C@@H](C(N)=O)NC(=O)[C@H](Cc2c[nH]c3ccccc23)NC(=O)[C@H](CCCNC(=N)N)NC(=O)[C@@H](Cc2ccccc2)NC(=O)[C@H](Cc2c[nH]cn2)NC1=O [gallium-67 labelled] | – | female C57 mice, B16/F1 melanoma, liver | intravenous, 0.037 MBq, 24 h | 0.5 ± 0.12 %ID/g
N=C(N)NCCC[C@H](NC(=O)CON=C[C@H](F)[C@@H](O)[C@H](O)[C@H](O)CO)C(=O)NCC(=O)N[C@@H](CC(=O)O)C(=O)O [fluorine-18 labelled] | – | nude mice U-87 MG tumour, brain | intravenous, 2 h | 0.16 ± 0.02 %ID/g
O=C([O-])CN1CCN(CC(=O)[O-])CCN(CC(=O)[O-])CCN(CC(=O)[O-])CC1.[64Cu+2] | – | healthy athymic nude mice, large intestine | intravenous, 15 min | 0.42 %ID/g
NC12CNCCNCC(NCc3ccc(CNC(=O)CCCC(=O)NCc4ccc(-c5nncnn5)cc4)cc3)(CNCCNC1)CNCCNC2.[64Cu+2] | – | athymic nude mice SW1222 xenograft, tumor | 1 h post injection, 24 h accumulation interval, with: huA33-TCO pretargeting | 5.6 %ID/g and 5.63 %ID/g
N=C(N)NCCC[C@@H]1NC(=O)[C@H](CCCCNC(=O)CON=C[C@H](F)[C@@H](O)[C@H](O)[C@H](O)CO)NC(=O)[C@@H](Cc2ccc(O)cc2)NC(=O)[C@H](CC(=O)O)NC(=O)CNC1=O [fluorine-18 labelled] | – | nude mice U-87 MG tumour, heart | intravenous, 2 h | 2.57 ± 2.53 %ID/g

Repeated from above:
Structure (SMILES) | test | system | setting | tissue uptake
CN1C(=O)[C@@H](Cc2ccc(O)c(I)c2)NC(=O)CNC(=O)[C@H](Cc2ccc3ccccc3c2)NC(=O)[C@H](CCCNC(=N)N)NC(=O)[C@H]1CCCNC(=O)c1ccc(CNC(=O)CN2CCN(CC(=O)O)CCN(CC(=O)O)CCN(CC(=O)O)CC2)cc1 [lutetium-177 labelled] | refers to: 177Lu radioactivity | female CB-17 SCID mice, Daudi xenograft, brain | intravenous, 0.16 nmol per mouse, 6 h | 0.02 ± 0.005 %ID/g
